Results pooled from the literature.
Several values in a cell are separate wells, animals, samples, runs or records. ± marks the error that the study gave.

C=CCn1c(=O)c2cnc(Nc3ccc(N4CCN(C)CC4)cc3)nc2n1-c1ccc2c(n1)[C@@](O)(CC)CC2 — G2/M cells in subpopulation (OVCAR-3; flow cytometry, measured: pHH3+γH2Ax+; concentration not given): 16.3%
CC[S+]([O-])c1nc(-c2cccc(OCc3ccccc3)c2)cc(C(F)(F)F)n1 (stereo not shown) — cells with nuclear RelA (HeLa Kyoto; RelA nuclear import, high content imaging; 0.02 µM, 3 h, together with: 1 µM PMA, 60 min): 70.9% and 75.9%
Cc1c(C(=O)O)ccc2c3n(nc12)[C@@H]1[C@H](C3)N(CC2CC2)[C@@]2(C(=O)Nc3cc(Cl)ccc32)[C@H]1c1cccc(Cl)c1F — IC50 (UM-UC-11 (MDM2-amplified); cell proliferation, alamarBlue; 120 h): 0.022 µM
O=C(/C=C/N1C[C@H]2C[C@@H]1CN2c1ccccn1)c1ccccc1O — viability (HBL-1; 1 µM, 120 h): 63.1%
Cn1c(Nc2nc3ccc(C(F)(F)F)cc3s2)nc2cc(C(=O)NCCOCCO)ccc21 — fold change (SH-SY5Y; RNA-seq, measured: SH3TC1 mRNA; 5 µM, 5 h; reference: untreated cells): 2.1
Nc1nc(Nc2ccc(S(N)(=O)=O)cc2)nn1C(=O)c1c(F)cccc1F — inhibition (HeLa expressing Ub(G76V)-GFP; Ub(G76V)-GFP degradation, cycloheximide chase; 12 µM): 4%
CCn1cc(-c2cc(Cn3ccnc3)cc3c2CCN([C@H](c2cc(OC)ccn2)C2CC2)C3=O)c(C(F)(F)F)n1 — EC50 (Huh-7; cell growth, inhibitor; 120 h): 4.41 µM
COc1cc2c(NC3CCN(C(C)C)CC3)nc(C3CCCCC3)nc2cc1OCCCN1CCCC1 — viability (HBL-1; 1 µM, 120 h): 113%
Oc1ccccc1-c1n[nH]cc1-c1ccnc2ccccc12 — log2 fold change (BCK1 (Candida albicans); kinase binding, MIB/MS competition; Candida albicans lysate; 10 µM; reference: DMSO): 0.26
O=C1NC(=O)/C(=C/c2ccc3nccnc3c2)S1 — inhibition (HeLa expressing Ub(G76V)-GFP; Ub(G76V)-GFP degradation, cycloheximide chase; 12 µM): 7%
CC(C)NCC(O)c1ccc(O)c(O)c1 (stereo not shown) — sarcomere length (ventricular cardiomyocytes, C57BL/6 mouse; dose not given, 0.4 s): 1.72 µm
NC(=O)c1cccc(NC(=O)/C=C/c2c[nH]c3ccccc23)c1 — viability (HBL-1; 0.1 µM, 120 h): 95.3%
CN(C)c1ccc(C(=C2C=CC(=[N+](C)C)C=C2)c2ccc(N(C)C)cc2)cc1 — inhibition (BT-12; cell viability, MTT; 10 µM, 72 h): 87.9%
O=c1oc2c(O)c(O)cc3c(=O)oc4c(O)c(O)cc1c4c23 — viability (HBL-1; 0.5 µM, 120 h): 98.6%
Cc1cccc2nc(-c3ccc(-c4cccc(CNCCCN5CCCC5=O)c4)cc3)[nH]c12 — IC50 (Plasmodium yoelii; 17XL; 384-well): > 20 µM
O=C(/C=C/C=C/C=C/C1CCCCC1)NC1=C[C@@](O)(/C=C/C=C/C=C/C(=O)NC2=C(O)CCC2=O)[C@@H]2O[C@@H]2C1=O — GI50 (HSC-3; cell growth, CellTiter-Glo; 78 h): 12.6 µM
CC[C@H](C)n1cc(C)c2c(C(=O)NCc3c(C)cc(C)[nH]c3=O)cc(-c3ccc(N4CCNCC4)nc3)cc21 — viability (HBL-1; 1 µM, 120 h): 123%
CC(C)n1c(/C=C/C(O)CC(O)CC(=O)O)c(-c2ccc(F)cc2)c2ccccc21 (stereo not shown) — inhibition (BT-12; cell viability, MTT; 10 µM, 72 h): 80.6%
c1coc(-c2n[nH]cc2-c2ccnc3ccccc23)c1 — log2 fold change (ENV7 (Candida albicans); kinase binding, MIB/MS competition; Candida albicans lysate; 10 µM; reference: DMSO): -0.01
O=C(O)CCNc1cc(N2CCc3ccccc3CC2)nc(-c2cccnc2)n1 — viability (HBL-1; 1 µM, 120 h): 98.6%
COc1ccc(NC(=O)Nc2cccc(-c3cn(Cc4ccccc4C)nn3)c2)cc1 — mRNA level (Huh-7; RT-PCR, measured: TNFa, Gpx4, Nrf2; 10 µM, 72 h): no effect
Cc1nn(-c2nc3c(F)cc(F)cc3s2)c(O)c1C(c1ccc(C(F)(F)F)cc1)c1c(C)nn(-c2nc3c(F)cc(F)cc3s2)c1O — inhibition (THP1-Dual; IFN luciferase reporter; 20 µM, together with: HT-DNA): 86.6% and 87.4% and 94% and 86.2% and 94.1% and 87.6%
O=C(O)CCNc1cc(N2CCc3ccccc3CC2)nc(-c2ccccn2)n1 — viability (HBL-1; 0.1 µM, 120 h): 122%
O=c1[nH]nc(OCCCc2ccc(Cl)cc2)c(NCc2cccnc2)c1Br — normalized enrichment score (HEK-293T; RNA-seq GSEA, measured: HALLMARK_COMPLEMENT; concentration not given; direction not given): -0.977
CCCOc1nc(-c2cccc(O)c2)cc(-c2cc3ccccc3nc2N2CCOCC2)c1C#N — selectivity ratio (NFS-60; MTT; reference: WI-38 EC50 over NFS-60 IC50): 0.801
Cc1[nH]c(C)c(-c2ccc(-c3ccc(OC(F)(F)F)cc3)cc2)c(=O)c1Cl — IC50 (Plasmodium yoelii; 17XL; 384-well): 0.137 ± 0.02 µM
O=C1Nc2ccccc2/C1=C1/Nc2ccccc2/C1=N\OCC(O)CO (stereo not shown) — inhibition (HeLa expressing Ub(G76V)-GFP; Ub(G76V)-GFP degradation, cycloheximide chase; 12 µM): 10%
CC(C)[C@H](NC(=O)c1cc(Cl)ccc1OCCNC(=O)OC(C)(C)C)C(=O)Nc1ccc([N+](=O)[O-])cc1Cl — colony formation (MDA-MB-231; 0.1 to 10 µM, 2 weeks): inhibited

Some of these lines once more:
O=C1NC(=O)/C(=C/c2ccc3nccnc3c2)S1 — inhibition (HeLa expressing Ub(G76V)-GFP; Ub(G76V)-GFP degradation, cycloheximide chase; 12 µM): 7%
O=c1oc2c(O)c(O)cc3c(=O)oc4c(O)c(O)cc1c4c23 — viability (HBL-1; 0.5 µM, 120 h): 98.6%
O=C(O)CCNc1cc(N2CCc3ccccc3CC2)nc(-c2cccnc2)n1 — viability (HBL-1; 1 µM, 120 h): 98.6%
